Experimental data collected from several papers.
Compare with care: the assays were run in different laboratories.
Cell line: U-937

Structure (SMILES)	test	conditions	scale	endpoint	value
CN1CCC(N[C@@H]2CCc3[nH]c4c(C(N)=O)ccc(-c5ccccc5Cl)c4c3C2)CC1	cell growth or viability			IC50	0.00226 µM
CC(C)c1ccc(N(C)c2ccc3c(c2)OCC[C@H]3CNc2cnccc2C(=O)O)cc1	cell growth or viability, ATP luminescence	7 days		IC50	0.00255 µM
CC1CCC2C(C)C(OC(=O)CCC(=O)OCCOC(=O)N3CCC(Nc4ccc(S(=O)(=O)NC(=O)c5ccc(N6CCN(CC7=C(c8ccc(Cl)cc8)CC(C)(C)CC7)CC6)cc5Oc5cnc6[nH]ccc6c5)cc4[N+](=O)[O-])CC3)OC3OC4(C)CCC1C32OO4 (stereo not shown)	cell growth or viability			GI50	0.38 µM
Cc1[nH][n+]([Pd-2]([Br])([Br])[n+]2[nH]c(C)c(CSC3CCCCC3)c2C)c(C)c1CSC1CCCCC1	cytotoxicity		reference: IC50 HEK293 over IC50 U-937	selectivity index	3.1
CCOc1cncc(-c2ccc(NC(=O)C3(c4ccnc(NS(=O)(=O)C5CC5)n4)CCOCC3)nc2)n1	cell proliferation, CellTiter-Glo	72 h		IC50	0.021 µM
Cc1[nH][n+]([Pd-2]([Br])([Br])[n+]2[nH]c(C)c(CSCc3ccccc3)c2C)c(C)c1CSCc1ccccc1	cytotoxicity		reference: IC50 HEK293 over IC50 U-937	selectivity index	1.4
CC1CCC2C(C)C(OC(=O)CCC(=O)OCCOCCOC(=O)N3CCC(Nc4ccc(S(=O)(=O)NC(=O)c5ccc(N6CCN(CC7=C(c8ccc(Cl)cc8)CC(C)(C)CC7)CC6)cc5Oc5cnc6[nH]ccc6c5)cc4[N+](=O)[O-])CC3)OC3OC4(C)CCC1C32OO4 (stereo not shown)	cell growth or viability			GI50	0.62 µM
NC(=O)c1ccc(-c2ccccc2Cl)c2c3c([nH]c12)CC[C@H](N)C3	cell growth or viability			IC50	0.0139 µM
CNS(=O)(=O)Nc1nccc(Cc2c(C)c3ccc(Oc4ncccc4F)cc3oc2=O)c1F	cell viability	7 days		IC50	> 1 µM
Cc1[nH][n+]([Pt-2]([Cl])([n+]2[nH]c(C)c(CSCc3ccccc3)c2C)[n+]2[nH]c(C)c(CSCc3ccccc3)c2C)c(C)c1CSCc1ccccc1.[Cl-]	cytotoxicity		reference: IC50 HEK293 over IC50 U-937	selectivity index	1.6

Some of these lines once more:
Structure (SMILES)	test	conditions	scale	endpoint	value
CC1CCC2C(C)C(OC(=O)CCC(=O)OCCOC(=O)N3CCC(Nc4ccc(S(=O)(=O)NC(=O)c5ccc(N6CCN(CC7=C(c8ccc(Cl)cc8)CC(C)(C)CC7)CC6)cc5Oc5cnc6[nH]ccc6c5)cc4[N+](=O)[O-])CC3)OC3OC4(C)CCC1C32OO4 (stereo not shown)	cell growth or viability			GI50	0.38 µM
